Published values of several laboratories.
Numbered parts are unrelated; each lists some results of a single study. Substitutions count along the parent as printed.
Sequence of UniProt P21917 (whole entry, looked up): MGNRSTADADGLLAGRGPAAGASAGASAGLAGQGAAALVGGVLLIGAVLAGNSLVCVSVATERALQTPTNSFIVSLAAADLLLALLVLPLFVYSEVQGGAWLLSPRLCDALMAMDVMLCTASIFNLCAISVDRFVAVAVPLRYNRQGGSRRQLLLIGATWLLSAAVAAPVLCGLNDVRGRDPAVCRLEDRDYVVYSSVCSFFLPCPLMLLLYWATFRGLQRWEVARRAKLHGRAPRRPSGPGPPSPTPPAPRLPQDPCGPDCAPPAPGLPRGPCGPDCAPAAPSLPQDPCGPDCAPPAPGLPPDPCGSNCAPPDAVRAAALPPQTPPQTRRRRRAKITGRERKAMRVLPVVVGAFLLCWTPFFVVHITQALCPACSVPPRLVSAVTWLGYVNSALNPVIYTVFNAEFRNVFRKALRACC

Block 1
Target: CEBPA, bZIP domain (human)
Method: DHFR protein complementation
Sample: yeast
Setting: single substitutions, most at no-binding floor
Relative to: wild-type JUN-FOS pair
Direction: higher = stronger binding
Measurement: binding fitness
Starting sequence: JUN, bZIP domain (human); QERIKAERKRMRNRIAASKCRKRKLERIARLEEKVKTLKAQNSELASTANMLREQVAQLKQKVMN; partner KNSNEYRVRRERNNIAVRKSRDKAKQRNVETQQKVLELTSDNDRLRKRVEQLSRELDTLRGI
Substitution = S47H; value = -1.46 natural log
Substitution = I28R; value = -1.39 natural log
Substitution = K39N; value = -1.46 natural log
Substitution = M51N; value = -1.55 natural log
Substitution = K39Y; value = -1.36 natural log
Substitution = R53K; value = -1.5 natural log
Substitution = A40Q; value = -1.45 natural log
Substitution = E44F; value = -1.49 natural log

Block 2
Target: POU domain, class 6, transcription factor 1, POU and homeodomain (POU6F1, Homo sapiens, UniProt Q14863, residues 311-611)
Method: protein-binding microarray
Molecule type: hairpin DNA
Sample: in vitro
Concentration: not given
Setting: whole hairpin DNA, median over replicate spots
Relative to: not given
Direction: higher = stronger binding
Measurement: median fluorescence
Constant ends, left off below: GAGGCC … GGCCTCACACTCTT
Target sequence (chain): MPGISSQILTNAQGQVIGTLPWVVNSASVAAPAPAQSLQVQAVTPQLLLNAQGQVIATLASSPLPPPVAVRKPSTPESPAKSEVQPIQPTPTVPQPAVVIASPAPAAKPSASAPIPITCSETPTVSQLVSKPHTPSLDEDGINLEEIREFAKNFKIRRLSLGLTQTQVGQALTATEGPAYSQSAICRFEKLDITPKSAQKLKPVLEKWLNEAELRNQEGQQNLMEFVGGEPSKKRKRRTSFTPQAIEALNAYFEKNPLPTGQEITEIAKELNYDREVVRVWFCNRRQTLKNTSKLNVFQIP
Oligonucleotide = ATAATGTGGTGCCTCCTGGCACCACATTAT; value = 558 a.u.
Oligonucleotide = ATAATGAGGCGCCTCCTGGCGCCTCATTAT (5mC at 16); value = 2490 a.u.
Oligonucleotide = ATCGTTAGGTGCCTCCTGGCACCTAACGAT; value = 336 a.u.
Oligonucleotide = ATAATTAGGCGCCTCCTGGCGCCTAATTAT; value = 1440 a.u.
Oligonucleotide = ATACTTAGGTGCCTCCTGGCACCTAAGTAT; value = 412 a.u.
Oligonucleotide = ACGATTAGGTGCCTCCTGGCACCTAATCGT (5mC at 8 34); value = 353 a.u.
Oligonucleotide = CTAATGAGGTGCCTCCTGGCACCTCATTAG (5mC at 7); value = 1430 a.u.
Oligonucleotide = ACGATTAGGTGCCTCCTGGCACCTAATCGT; value = 357 a.u.

Block 3
Target: CCNF, cyclin fold, Cln2 fusion (human)
Method: yeast growth competition, sequencing
Sample: yeast
Setting: strong parent motif
Relative to: not given
Direction: higher = stronger binding
Measurement: normalised enrichment score
Starting sequence: INSM1 docking peptide (human); PKAIRKLHFEDEV; partner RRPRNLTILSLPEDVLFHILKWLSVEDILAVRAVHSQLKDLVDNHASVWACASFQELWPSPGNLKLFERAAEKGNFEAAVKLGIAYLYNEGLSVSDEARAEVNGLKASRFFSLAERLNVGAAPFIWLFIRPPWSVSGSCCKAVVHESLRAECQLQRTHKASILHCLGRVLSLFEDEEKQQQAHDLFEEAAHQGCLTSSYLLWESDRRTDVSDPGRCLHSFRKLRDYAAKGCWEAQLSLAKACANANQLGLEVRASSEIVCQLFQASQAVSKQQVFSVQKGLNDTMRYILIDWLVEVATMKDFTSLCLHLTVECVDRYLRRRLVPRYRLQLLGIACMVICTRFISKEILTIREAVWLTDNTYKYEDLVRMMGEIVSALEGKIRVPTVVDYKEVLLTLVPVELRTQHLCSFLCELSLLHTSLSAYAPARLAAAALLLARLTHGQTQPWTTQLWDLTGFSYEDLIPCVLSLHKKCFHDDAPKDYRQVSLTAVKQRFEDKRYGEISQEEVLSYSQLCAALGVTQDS
Substitution = I4Y; value = 7.15
Substitution = R5G; value = 0.382
Substitution = F9N; value = -0.0325
Substitution = K6I; value = 5.54
Substitution = D11S; value = 7.74
Substitution = R5C; value = 1.91
Substitution = K6H; value = 6.23
Substitution = L7F; value = -0.149

Further values, each from its own experiment
Compound = CN1C(=O)[C@@H](N2CCc3c(nn(Cc4ccccc4)c3Br)C2=O)COc2ccccc21; target = D(4) dopamine receptor (DRD4, Homo sapiens, UniProt P21917); read-out = cell-free assay; concentration = 10 µM; measurement = inhibition; value = 8.9%

Excerpt of the above (block 1):
Substitution = K39N; value = -1.46 natural log
Substitution = M51N; value = -1.55 natural log
Substitution = K39Y; value = -1.36 natural log
Substitution = R53K; value = -1.5 natural log
